Results of several laboratories.
Several values in a cell are separate wells, animals, samples, runs or records. Numbers after ± are the reported error.
rep main protease: Replicase polyprotein 1ab, main protease (rep, Severe acute respiratory syndrome coronavirus 2, UniProt P0DTD1)
cya: Calmodulin-sensitive adenylate cyclase (cya, Bacillus anthracis, UniProt P40136)
Spike glycoprotein: Spike glycoprotein (Severe acute respiratory syndrome coronavirus 2, UniProt P0DTC2)

Substance = NC(=O)C1=C(O)C[C@@H]2C[C@@H]3Cc4cccc(O)c4C(=O)C3=C(O)[C@]2(O)C1=O; target = rep main protease; test = reporter gene (mKate2), inhibitor; conditions = 20 µM; endpoint = inhibition; result = -0.271%
Substance = Cl.Cl.O=C1c2c(O)ccc(O)c2C(=O)c2c(NCCNCCO)ccc(NCCNCCO)c21; target = Replicase polyprotein 1ab, nsp14 N7-methyltransferase (rep, Severe acute respiratory syndrome coronavirus 2, UniProt P0DTD1); test = N7-methyltransferase activity, inhibitor, Py-FLINT; endpoint = Hill slope; result = 1.09 ± 0.04
Substance = Nc1cccc(C(=O)NC[C@H](NC(=O)c2cnc3n[nH]nc3c2)c2ccc3ccccc3c2)c1; target = rep main protease; test = enzyme activity, inhibitor; conditions = 5 µM, mean of runs; endpoint = inhibition; result = 10.6%
Substance = Nc1ncnc2c1c(-c1ccccn1)cn2CCOCP(=O)(O)OP(=O)(O)OP(=O)(O)O.[Na+].[Na+].[Na+].[Na+]; target = cya; test = enzyme activity, inhibitor; endpoint = potency relative to reference; result = ~4 fold less potent
Substance = O=C1NC(=O)[C@@H](CC(=O)N2C[C@H](CO)C3(C2)CN(C(=O)c2cc4ccc(O)cc4[nH]2)C3)N1; target = rep main protease; test = enzyme activity, inhibitor; conditions = 5 µM, run 1; endpoint = inhibition; result = 14.7%
Substance = Cc1[nH]c(/C=C2\C(=O)Nc3ccc(F)cc32)c(C)c1C(=O)NCCN1CCCC1.O=P(O)(O)O; target = rep main protease; test = reporter gene (mKate2), inhibitor; conditions = 20 µM; endpoint = inhibition; result = -0.892%
Substance = CCc1c(C(=O)C(N)=O)c2c(OCC(=O)O)cccc2n1Cc1ccccc1; target = Daboia russelii venom phospholipase A2; test = enzyme activity, inhibitor; system = PB population; conditions = 10 µM, together with: NOB substrate; how to read = reference: venom alone; endpoint = remaining activity; result = 21.5% and 20.5% and 13.7%
Substance = CCCCCCc1ccc(O)cc1O; target = rep main protease; test = reporter gene (mKate2), inhibitor; conditions = 20 µM; endpoint = inhibition; result = -0.105%
Substance = O=C(O)c1cc(OCc2cn([C@@H]3O[C@H](CO)[C@H](O[C@H]4O[C@H](CO)[C@H](O)[C@H](O)[C@H]4O)[C@H](O)[C@H]3O)nn2)cc(OCc2cn([C@@H]3O[C@H](CO)[C@H](O[C@H]4O[C@H](CO)[C@H](O)[C@H](O)[C@H]4O)[C@H](O)[C@H]3O)nn2)c1; target = Shiga toxin subunit B (stxB, Shigella dysenteriae, UniProt Q7BQ98); system = Escherichia coli; endpoint = Hill slope; result = -0.789
Substance = Aprotinin; target = rep main protease; test = enzyme activity, mKate2 fluorescence reporter; system = SARS-CoV-2; conditions = 20 µM; endpoint = inhibition; result = -0.0274%
Substance = CC[C@H](C)[C@H](NC(=O)[C@H](Cc1c[nH]cn1)NC(=O)[C@H](CO)NC(=O)CNC(=O)[C@H](CCC(=O)O)NC(=O)[C@H](CCSC)NC(=O)[C@@H](NC(=O)[C@H](Cc1c[nH]cn1)NC(=O)[C@H](CO)NC(=O)[C@H](CCSC)NC(=O)[C@H](C)NC(=O)[C@H](CC(N)=O)NC(C)=O)C(C)C)C(=O)N[C@@H](CC(N)=O)C(=O)N[C@@H](Cc1c[nH]c2ccccc12)C(=O)N[C@@H](CC(=O)O)C(=O)N[C@@H](C)C(N)=O; target = Polyprotein P1234, nsP2 protease domain (Chikungunya virus, UniProt Q8JUX6); test = protease activity, inhibitor, FRET; conditions = 20 min, pH 7.5, 20 °C; endpoint = IC50; result = ≤ 900 µM
Substance = O=C(NCCCCN1CCOCC1)c1cc2ccccc2o1; target = rep main protease; test = viral replication, mKate2 reporter; system = SARS-CoV-2; conditions = 20 µM; endpoint = inhibition; result = -0.428%
Substance = Oc1cc(O)c2c(c1)O[C@H](c1cc(O)c(O)c(O)c1)[C@H](O)C2; target = Spike glycoprotein; test = binding, BLI; endpoint = koff; result = 0.00877 s⁻¹
Substance = O=C[C@H](O)[C@@H](O)[C@@H](O)[C@H](O)CO; target = ctxB (Vibrio cholerae, UniProt P01556); test = binding; endpoint = log IC50; result = -0.953
Substance = O=c1cc(-c2ccc(O)c(O)c2)oc2cc(O)cc(O)c12; target = Spike glycoprotein; test = binding, BLI; endpoint = koff; result = 0.017 s⁻¹
Substance = CC[C@H](C)[C@H](NC(=O)[C@@H]1CCCN1C(=O)[C@H](C)NC(=O)[C@@H]1CSSC[C@@H]2NC(=O)[C@H](CC(=O)O)NC(=O)[C@H](CCCNC(=N)N)NC(=O)[C@H](CCC(=O)O)NC(=O)[C@H](CCCNC(=N)N)NC(=O)CNC(=O)[C@H](CC(=O)O)NC(=O)[C@@H]3CSSC[C@H](NC(=O)[C@H](CCC(=O)O)NC(=O)[C@H](CC(C)C)NC(=O)CNC(=O)[C@H](C)NC(=O)[C@H](CSSC[C@H](NC(=O)[C@H](Cc4ccccc4)NC(=O)[C@@H](N)CO)C(=O)N[C@@H](CC(C)C)C(=O)N[C@@H](C(C)C)C(=O)N[C@@H](CCCCN)C(=O)N[C@@H](Cc4c[nH]c5ccccc45)C(=O)N[C@@H](CCCCN)C(=O)N[C@@H](CCC(N)=O)C(=O)N3)NC2=O)C(=O)N[C@@H](Cc2c[nH]c3ccccc23)C(=O)N[C@@H](CCCCN)C(=O)N[C@@H](CCCNC(=N)N)C(=O)N[C@@H](CO)C(=O)N[C@@H](CCCNC(=N)N)C(=O)N[C@@H](CC(N)=O)C(=O)N[C@@H](CCCCN)C(=O)N[C@@H](CO)C(=O)N[C@@H](CO)C(=O)N[C@@H](C(C)C)C(=O)N1)C(=O)N[C@H](C(=O)O)[C@@H](C)O; target = Acid-sensing ion channel 1 (ASIC1, Homo sapiens, UniProt P78348); test = binding, SPR; conditions = pH 7.5; endpoint = kon; result = 2.29e+07 M⁻¹ s⁻¹
Substance = O=C(NC[C@@H]1CC2(CCOCC2)CN1C(=O)c1ccc2c(c1)C(=O)NC2)c1cccnn1; target = rep main protease; test = enzyme activity, inhibitor; conditions = 5 µM, mean of runs; endpoint = inhibition; result = 10.1%
Substance = Cc1nc(N)cc(OCCNC(=O)c2ccc(S(=O)(=O)F)cc2)n1; target = cya; endpoint = kinact; result = 0.00263 s⁻¹
Substance = O=C(NC[C@H](NC(=O)c1cncc2ccccc12)c1ccc2ccccc2c1)c1cn[nH]n1; target = rep main protease; test = enzyme activity, inhibitor; conditions = 5 µM, run 1; endpoint = inhibition; result = 13.6%
Substance = CCc1c2c(nc3ccc(OC(=O)N4CCC(N5CCCCC5)CC4)cc13)-c1cc3c(c(=O)n1C2)COC(=O)[C@]3(O)CC; target = Spike glycoprotein; test = binding, BLI; endpoint = kon; result = 402 M⁻¹ s⁻¹
Substance = Cc1ccccc1C1(C(=O)NC[C@H](NC(=O)Cn2cncn2)c2ccc3ccccc3c2)CC1; target = rep main protease; test = enzyme activity, inhibitor; conditions = 5 µM, run 2; endpoint = inhibition; result = 14.9%
Substance = CCOC(=O)c1cc2cc(-c3cc(C(=O)NCc4ccc(C(=O)O)cc4)nn3C)ccc2[nH]1; target = rep main protease; test = reporter gene (Gaussia luciferase), inhibitor; system = HEK293T; conditions = 20 µM; endpoint = inhibition; result = 3.06%
Substance = O=C(Cn1c(O)ccc1O)N[C@@H]1CCCCC12CCN(C(=O)c1cncc3[nH]cnc13)CC2; target = rep main protease; test = enzyme activity, inhibitor; conditions = 5 µM, run 1; endpoint = inhibition; result = 13.8%
Substance = CC(C)=CCc1cc2c(cc1O)O[C@H](c1ccc(O)cc1)CC2=O; target = Spike glycoprotein; test = binding, BLI; endpoint = koff; result = 0.0787 s⁻¹
Substance = O=C(NCCC[C@@H](NC(=O)c1cccc2cc(=O)[nH]cc12)c1ccccc1)c1cn[nH]c(=O)c1; target = rep main protease; test = enzyme activity, inhibitor; conditions = 5 µM, run 1; endpoint = inhibition; result = 12.4%
Substance = CC(C)(C)NC(=O)[C@@H]1C[C@@H]2CCCC[C@@H]2CN1C[C@@H](O)[C@H](Cc1ccccc1)NC(=O)[C@H](CC(N)=O)NC(=O)c1ccc2ccccc2n1; target = rep main protease; test = reporter gene (mKate2), inhibitor; conditions = 20 µM; endpoint = inhibition; result = 0.536%
Substance = NC(=O)c1cc(C(=O)NC[C@H]2CN(C(=O)/C=C/c3cccnc3)Cc3ccccc32)c[nH]1; target = rep main protease; test = enzyme activity, inhibitor; conditions = 5 µM, run 1; endpoint = inhibition; result = 59.3%
Substance = O=C(O[C@@H]1Cc2c(O)cc(O)cc2O[C@@H]1c1cc(O)c(O)c(O)c1)c1cc(O)c(O)c(O)c1; target = Spike glycoprotein; test = binding; endpoint = kon; result = 1710 M⁻¹ s⁻¹
Substance = CC(=O)c1cc([N+](=O)[O-])c(Sc2ccc(F)cc2F)s1; target = rep main protease; test = viral replication, mKate2 reporter; system = SARS-CoV-2; conditions = 20 µM; endpoint = inhibition; result = 0.233%
